{"data": "Experimental data from different studies", "note": "Protocols differ between the studies behind these lines. ± gives the spread as reported."}
{"Compound": "O=[N+]([O-])c1ccc(N2CCN(CCC(O)c3ccc(F)cc3)CC2)c(C(F)(F)F)c1 (centres unmarked)", "target or system": "Salmonella typhimurium", "assay": "SOS/umu test", "system": "TA1535/pSK1002", "setting": "0.031 mg/mL, 4 h, without S9, full range", "quantity": "survival", "result": "26.4%"}
{"Compound": "CNC(=O)c1c(N(C)N=O)ncn1C", "target or system": "Salmonella typhimurium", "assay": "plate incorporation", "system": "TA1537, water", "setting": "500 µg/plate, without S9", "quantity": "revertant colonies per plate", "result": "11.3 ± 3"}
{"Compound": "Fc1ccc(C2=CCNCC2)cc1", "target or system": "Salmonella typhimurium", "assay": "SOS response, SOS/umu test", "system": "TA1535/pSK1002, TGA medium", "setting": "1 mg/mL, 4 h, together with: 10% rat liver S9", "scale": "reference: untreated", "quantity": "induction factor", "result": 2}
{"Compound": "CC(=O)N1CCC(C(=O)N2CCN3C(=O)c4cc(-c5ccccc5)ccc4NC(=O)C3C2)CC1 (centres unmarked)", "target or system": "Salmonella typhimurium", "system": "TA98", "setting": "158 µg/plate", "scale": "reference: vehicle", "quantity": "fold increase in revertants", "result": 0.9}
{"Compound": "N#C[C@@]1(n2ccc(N)nc2=O)O[C@H](CO)[C@@H](O)[C@H]1O", "target or system": "Salmonella typhimurium", "system": "TA98", "setting": "600 nM, without S9", "quantity": "viability", "result": "102%"}
{"Compound": "CN(N=O)c1ccc(F)cc1", "target or system": "Salmonella typhimurium", "assay": "mutagenicity, Ames plate incorporation", "system": "TA1535", "setting": "5000 µg/plate, 3 d, without S9, methanol", "quantity": "revertant colonies per plate", "result": "13.7 ± 2"}
{"Compound": "Cc1cc(C(=O)NC(C)(C)COc2cccc3c2C(N)=NS(=O)(=O)N3)cc(C)n1", "target or system": "Salmonella typhimurium", "assay": "Ames test, initial", "system": "TA100", "setting": "50.0 µg/plate, together with: rat liver S9", "scale": "reference: solvent control", "quantity": "revertant ratio", "result": 1.1}
{"Compound": "COc1cccc(-c2n[nH]c(SCc3ccccn3)n2)c1OC", "target or system": "Salmonella typhimurium", "assay": "Ames test, preincubation", "system": "TA1537", "setting": "0.063 mg/plate, with rat liver S9", "quantity": "revertant colonies per plate", "result": 14}
{"Compound": "OC(CCN1CC=C(c2ccc(F)cc2)CC1)c1ccc(F)c2ccccc12 (centres unmarked)", "target or system": "Salmonella typhimurium", "assay": "genotoxicity, SOS/umu test", "system": "TA1535/pSK1002", "setting": "0.001 mg/mL, 4 h, without S9, lower range", "quantity": "induction factor", "result": 0.7}
{"Compound": "CN1CCCC2(C1)CN(Cc1cccnc1)c1ccc(C(=O)NCC3CCCCC3)cc12 (centres unmarked)", "target or system": "Vero-E6", "assay": "CellTiter-Glo ATP", "setting": "concentration not given, 72 h, second round 5-point", "scale": "reference: DMSO 0%, hyamine -100%, more negative, more toxic", "quantity": "cytotoxicity efficacy", "result": "18.7%"}
{"Compound": "CC(C)N(N=O)C(C)C", "target or system": "Salmonella typhimurium", "assay": "mutagenicity, Ames plate incorporation", "system": "TA98", "setting": "150 µg/plate, without S9, methanol", "quantity": "revertant colonies per plate", "result": "43.7 ± 7"}
{"Compound": "O=[N+]([O-])c1ccc(N2CCC(NCCC(O)c3ccc(F)c4ccccc34)CC2)c(C(F)(F)F)c1 (centres unmarked)", "target or system": "Salmonella typhimurium", "assay": "SOS/umu test", "system": "TA1535/pSK1002, TGA medium", "setting": "0.000488 mg/mL, 4 h, without S9", "quantity": "survival", "result": "112%"}
{"Compound": "O=NN1CCN(C2CCCC2)CC1", "target or system": "Salmonella typhimurium", "assay": "mutagenicity, Ames plate incorporation", "system": "TA98", "setting": "150 µg/plate, 3 d, without S9, methanol", "quantity": "revertant colonies per plate", "result": "23.7 ± 5"}
{"Compound": "CCN(CC)Cc1ccc(Nc2ccnc3cc(Cl)ccc23)cc1O", "target or system": "Vero-E6", "assay": "CellTiter-Glo ATP", "setting": "72 h, second round 5-point", "scale": "reference: DMSO 0%, hyamine -100%, more negative, more toxic", "quantity": "maximum response", "result": "-9.14%"}
{"note": "A few entries again:"}
{"Compound": "N#C[C@@]1(n2ccc(N)nc2=O)O[C@H](CO)[C@@H](O)[C@H]1O", "target or system": "Salmonella typhimurium", "system": "TA98", "setting": "600 nM, without S9", "quantity": "viability", "result": "102%"}
{"Compound": "CCN(CC)Cc1ccc(Nc2ccnc3cc(Cl)ccc23)cc1O", "target or system": "Vero-E6", "assay": "CellTiter-Glo ATP", "setting": "72 h, second round 5-point", "scale": "reference: DMSO 0%, hyamine -100%, more negative, more toxic", "quantity": "maximum response", "result": "-9.14%"}
